Results of several laboratories.
Each line is one published result; not all experiments were run side by side. ± marks the error that the study gave.

Compound | test | system | conditions | endpoint | value
CCc1ccc(C(=O)Oc2ccc(C#N)c(F)c2)cc1 | – | human mother-newborn pairs, female, maternal serum | – | mean serum concentration | 2.76 ng/mL
CN1CC[C@@H](c2c(O)cc(O)c3c(=O)cc(-c4ccc(C(F)(F)F)cc4Cl)oc23)[C@@H]1CO | – | human, plasma | oral, 200 mg once daily, cycle 1 | mean steady-state Ctrough | > 450 ng/mL
CCCC1CCC(c2ccc(-c3ccc(F)c(F)c3)cc2)CC1 (stereo not drawn) | – | human mother-newborn pairs, cord serum | – | mean serum concentration | 1.15 ng/mL
C[C@H](CCC(=O)NCC(=O)O)[C@H]1CC[C@H]2[C@@H]3CC[C@@H]4C[C@H](OS(=O)(=O)O)CC[C@]4(C)[C@H]3C[C@H](O)[C@]12C | – | human, plasma | control | mean daily plasma concentration | 289 ± 70 nM
CCCCc1ccc(-c2ccc(C#N)cc2)cc1 | – | human mother-newborn pairs, cord serum | – | mean serum concentration | 0.23 ng/mL
Cc1ccc(O)c(-n2nc3ccccc3n2)c1 | exposure assessment | human, age 21-60 years | cream | mean daily dermal uptake | 283 ng/kg body weight/day
CCCCc1ccc(C#Cc2ccc(OCC)cc2)cc1 | – | human mother-newborn pairs, cord serum | – | mean serum concentration | 0.43 ng/mL
C[C@H](CCC(=O)NCC(=O)O)[C@H]1CC[C@H]2[C@@H]3[C@H](O)C[C@@H]4C[C@H](O)CC[C@]4(C)[C@H]3CC[C@]12C | – | human, plasma | control | mean daily plasma concentration | 589 ± 66 nM
COc1cc(C(=O)O)ccc1NC(=O)[C@@H]1N[C@@H](CC(C)(C)C)[C@](C#N)(c2ccc(Cl)cc2F)[C@H]1c1cccc(Cl)c1F | – | human, plasma | 200 mg, steady state, added: venetoclax 400 mg | mean Ctrough | 2.24 µg/mL
C[C@H](CCC(=O)O)[C@H]1CC[C@H]2[C@@H]3[C@H](O)C[C@@H]4C[C@H](O)CC[C@]4(C)[C@H]3CC[C@]12C | – | human, plasma | oral, dose not given, control | mean daily plasma concentration | 582 ± 140 nM
CCCOc1ccc(-c2ccc(C#N)cc2)cc1 | – | human mother-newborn pairs, female fetuses, cord serum | – | mean serum concentration | 0.92 ng/mL
O=C(O)CCCCCCCCCCC(=O)O | – | human, plasma | oral, dose not given, control | mean daily plasma concentration | 33.8 ± 4.5 nM
CCCCOc1ccc([C@H]2CC[C@H](CCC)CC2)c(F)c1F | – | human mother-newborn pairs, cord serum | – | mean serum concentration | 7.51 ng/mL
O=C(O)[C@H]1O[C@@H](Oc2cc(O)cc(/C=C\c3ccc(O)cc3)c2)[C@H](O)[C@@H](O)[C@@H]1O | – | human, plasma | – | mean concentration | 478 nM
Cc1cn([C@H]2C[C@H](N=[N+]=[N-])[C@@H](COP(=O)(O)OP(=O)(O)O)O2)c(=O)[nH]c1=O | measured: phosphorylated zidovudine metabolites | human, peripheral blood mononuclear cells | 600 mg zidovudine, single dose | mean residence time | 14.3 ± 6.35 h
CCn1c(C(=O)N(C2CC2)C2CC2)cc2c3c(ncn3C)c(Nc3cc(C)n(C)n3)nc21 | – | human cancer patients, plasma | oral, 200 mg single dose, 1 h, first-in-human study | mean plasma concentration | 1320 ng/mL
C[C@H](CCC(=O)O[C@@H]1O[C@H](C(=O)O)[C@@H](O)[C@H](O)[C@H]1O)[C@H]1CC[C@H]2[C@@H]3[C@H](O)C[C@@H]4C[C@H](O)CC[C@]4(C)[C@H]3CC[C@]12C | – | human, plasma | control | mean daily plasma concentration | 20.9 ± 2.2 nM
O=C([O-])CN(CCN(CC(=O)[O-])Cc1cc(CCC(=O)NCCCCCC(=O)NCCCC[C@H](NC(=O)N[C@@H](CCC(=O)O)C(=O)O)C(=O)O)ccc1[O-])Cc1cc(CCC(=O)O)ccc1[O-].[68Ga+3].[OH3+] | PET/CT | human, primary prostate cancer, primary lesion | – | mean SUVmax | 22.7 ± 25.7
CCCCCc1ccc(C(=O)Oc2ccc(C#N)c(F)c2)cc1 | – | human mother-newborn pairs, female, maternal serum | – | mean serum concentration | 0.45 ng/mL
C[C@@H](O)CCOC(=O)C[C@@H](C)O | – | human | oral drink, dose not given, 90 min post dose, mean | mean arterial pressure | 81 mmHg
Cn1cc(-c2cn3nccc3c(-c3cnn([C@]4(CC#N)C[C@@H](C#N)C4)c3)n2)cn1 | – | healthy humans fasted, plasma | 30 mg single dose, geometric mean | mean residence time | 17 h
CCNCCCNC/C=C\CNCCCNCC | LC-MS/MS | human cancer patients, plasma | intravenous infusion 60 min, 200 mg, median, cycle 1 | mean residence time | 0.65 h
CCN1CCN(Cc2ccc(Nc3ncc(F)c(-c4cc(F)c5nc(C)n(C(C)C)c5c4)n3)nc2)CC1 | population PK model | human, plasma | oral | mean transit time | 1.54 h
O=C(O)CCCCCCCCCCCCCCCCC(=O)O | – | human, plasma | control | mean daily plasma concentration | 79.5 ± 5.9 nM
Cc1ccc(Sc2ccccc2N2CCNCC2)c(C)c1 | – | healthy male humans fed, plasma | oral, 10 mg single, high-fat breakfast | mean AUC(0-168 h) | 316 ng·h/mL
CC=CC1CCC(C2CCC(CCC)CC2)CC1 (stereo not drawn) | – | human mother-newborn pairs, maternal serum | – | mean serum concentration | 1.31 ng/mL
C[C@H](CCC(=O)NCC(=O)O)[C@H]1CC[C@H]2[C@@H]3CC[C@@H]4C[C@H](O)CC[C@]4(C)[C@H]3C[C@H](O)[C@]12C | – | human, plasma | oral, dose not given, control | mean daily plasma concentration | 291 ± 54 nM
N#Cc1ccc2c(c1)[C@H]1CCCN(C(=O)c3ccc4[nH]cnc4c3)[C@H]1C2 | – | human | 40 mg, day 7 | mean ACTH level | 6.6 pmol/L
C[C@H](CCC(=O)NCC(=O)O)[C@H]1CC[C@H]2[C@@H]3CC[C@@H]4C[C@H](O)CC[C@]4(C)[C@H]3CC[C@]12C | – | human, plasma | control | mean daily plasma concentration | 32.4 ± 9.1 nM
C=CC(=O)N(C)CCOc1c(N)ncnc1-c1cc(F)cc(NC(=O)c2ccc(C3CC3)cc2F)c1C | – | human, whole blood | oral, 400 mg, single ascending dose | mean residence time | 3.76 h

For quick reference, copied from above:
Compound | test | system | conditions | endpoint | value
CCNCCCNC/C=C\CNCCCNCC | LC-MS/MS | human cancer patients, plasma | intravenous infusion 60 min, 200 mg, median, cycle 1 | mean residence time | 0.65 h
CCN1CCN(Cc2ccc(Nc3ncc(F)c(-c4cc(F)c5nc(C)n(C(C)C)c5c4)n3)nc2)CC1 | population PK model | human, plasma | oral | mean transit time | 1.54 h
O=C(O)CCCCCCCCCCCCCCCCC(=O)O | – | human, plasma | control | mean daily plasma concentration | 79.5 ± 5.9 nM
Cc1ccc(Sc2ccccc2N2CCNCC2)c(C)c1 | – | healthy male humans fed, plasma | oral, 10 mg single, high-fat breakfast | mean AUC(0-168 h) | 316 ng·h/mL
